Assay results collected from several papers.
Numbered parts are unrelated; each lists some results of a single study.

Series 1
Target: Probable WRKY transcription factor 33, N-terminal DNA-binding domain (WRKY33, Arabidopsis thaliana, UniProt Q8S8P5, residues 169-264)
Technique: DNA-protein interaction ELISA
Molecule type: double-stranded DNA, one strand shown
Matrix: in vitro, bacterial lysate
Tested at: not given
Notes: whole dsDNA probe, crude lysate protein
Baseline: highest signal in screen
Reading: higher = stronger binding
Residues (chain): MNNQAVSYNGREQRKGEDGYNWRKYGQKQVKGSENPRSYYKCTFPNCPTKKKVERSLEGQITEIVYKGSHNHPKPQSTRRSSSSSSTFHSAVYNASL
Strand	relative absorbance
AAAAAACATTCCTAGTTCATGTTACTAAAA	24.5 % of maximum
AAAAAACGTGCGCGTGCATGTCATCGAAAA	27 % of maximum
AAAAAAGGAAGTACTGACGATCTGGAAAAA	24.2 % of maximum
AAAAAATAAATCGCGGCTACTGCTTCAAAA	20 % of maximum
AAAAAACCGGCACGATTTGGATATTCAAAA	21.4 % of maximum
AAAAAATAGCGACTTCGACTCTCAGTAAAA	13.3 % of maximum
AAAAAATATTCCGCTTTTGGCTGAATAAAA	31 % of maximum
AAAAAAGTGTGTGGCTCAGGATTCCCAAAA	20.7 % of maximum
AAAAAAGTCGTTACACGTATGCGTGCAAAA	34.8 % of maximum
AAAAAATGGCTCGGGTTCCAAGGTTGAAAA	32.8 % of maximum

Series 2
Molecule: PhoQ, residues 284 288 289 292 302 303 SLGVVW
Technique: Sort-seq
Measured: YFP reporter
Matrix: E. coli
Notes: PhoQ-PhoP variant library
With: 10 µM Mg2+
Baseline: high Mg2+ state
Reading: higher = stronger signaling
target	fold induction
PhoP, residues 12 14 15 18 19 VGHWL (Escherichia coli, UniProt P23836)	0.646
PhoP, residues 12 14 15 18 19 TPWTL (Escherichia coli, UniProt P23836)	23.1
PhoP, residues 12 14 15 18 19 NFFVT (Escherichia coli, UniProt P23836)	10.9

Series 3
Target: Sal-like protein 4, full length isoform A (SALL4, Homo sapiens, UniProt Q9UJQ4, residues 1-1053)
Chain of UniProt Q9UJQ4 (whole entry, looked up): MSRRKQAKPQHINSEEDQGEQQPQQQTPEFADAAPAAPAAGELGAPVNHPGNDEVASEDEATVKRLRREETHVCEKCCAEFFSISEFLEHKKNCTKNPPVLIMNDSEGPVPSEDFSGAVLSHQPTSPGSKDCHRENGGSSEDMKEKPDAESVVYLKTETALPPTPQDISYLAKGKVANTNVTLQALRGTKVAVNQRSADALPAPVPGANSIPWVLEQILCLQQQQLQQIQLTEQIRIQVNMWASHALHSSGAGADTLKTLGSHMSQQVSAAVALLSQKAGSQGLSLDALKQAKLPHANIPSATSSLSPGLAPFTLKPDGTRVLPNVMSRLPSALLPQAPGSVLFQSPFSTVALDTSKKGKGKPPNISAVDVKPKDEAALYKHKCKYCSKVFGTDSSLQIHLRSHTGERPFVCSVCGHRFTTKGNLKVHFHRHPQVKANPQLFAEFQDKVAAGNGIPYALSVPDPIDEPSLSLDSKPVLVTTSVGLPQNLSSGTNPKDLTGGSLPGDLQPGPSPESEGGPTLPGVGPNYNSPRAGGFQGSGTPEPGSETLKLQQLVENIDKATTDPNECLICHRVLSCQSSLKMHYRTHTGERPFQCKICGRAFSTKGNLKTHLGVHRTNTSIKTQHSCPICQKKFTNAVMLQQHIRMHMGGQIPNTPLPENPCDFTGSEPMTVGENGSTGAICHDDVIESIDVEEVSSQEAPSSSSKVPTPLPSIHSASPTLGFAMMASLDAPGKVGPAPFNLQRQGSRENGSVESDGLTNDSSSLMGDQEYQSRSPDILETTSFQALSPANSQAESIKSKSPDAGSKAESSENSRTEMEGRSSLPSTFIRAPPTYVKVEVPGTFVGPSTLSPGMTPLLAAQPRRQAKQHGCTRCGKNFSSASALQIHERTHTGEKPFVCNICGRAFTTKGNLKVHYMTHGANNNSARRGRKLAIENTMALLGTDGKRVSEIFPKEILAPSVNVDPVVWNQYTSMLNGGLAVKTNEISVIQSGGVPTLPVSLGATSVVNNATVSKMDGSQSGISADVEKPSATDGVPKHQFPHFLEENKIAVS
Technique: universal PBM
Molecule type: double-stranded DNA, one strand shown
Matrix: in vitro
Tested at: 600 nM
Notes: 8-mer, flanks averaged, mean of replicates
Reading: higher = stronger binding
Strand	E-score
CCATGTCG	-0.137
CGTGCCAC	-0.303
AGTTTACC	0.0646
AACCGCGT	-0.0951
CCGATTTA	0.241
GATCGCCA	-0.0468
ATTAAATG	0.292
ACAGCTAA	0.0653
AAATCTGA	0.136
AAGAATAT	0.303
ATCCTCTA	-0.0142
GCATTTCA	0.187
CGTAAAAG	0.155
GACTAACA	0.13
ATACACTC	0.217
CCTTTGTC	-0.00142
CCACAATA	0.134

Series 4
Target: Prothrombin, mature alpha-thrombin (F2, Homo sapiens, UniProt P00734)
Technique: aptamer microarray, sandwich
Molecule type: DNA with 2'F-ANA
Matrix: in vitro
Tested at: 200 nM
Notes: whole 15-mer aptamer, many near background
With: Cy3 exosite-II aptamer, 400 nM
Reading: higher = stronger binding
Strand: GGTTGGTGTGGTTGG
Modification	mean fluorescence intensity [a.u.]
2'F-ANA at 2 7 9 10 11 12 14 15	87.3
2'F-ANA at 1 3 4 7 9 11 13	131
2'F-ANA at 2 3 4 8 10 11 14	169
2'F-ANA at 1 5 6 7 8 9 10 14	68.5
2'F-ANA at 4 5 7 8 9 11 13 15	50.1
2'F-ANA at 1 2 3 4 5 6 9 10	51
2'F-ANA at 1 2 6 7 9 10 11 13 14	51.3
2'F-ANA at 1 3 5 6 12 14 15	68.1
2'F-ANA at 2 3 6 7 8 12 13 14	554
2'F-ANA at 1 2 3 4 5 6 7 9 10 11 12 15	49.6

For quick reference, copied from above (series 4):
Modification	mean fluorescence intensity [a.u.]
2'F-ANA at 1 2 6 7 9 10 11 13 14	51.3
2'F-ANA at 2 3 6 7 8 12 13 14	554
2'F-ANA at 1 3 4 7 9 11 13	131
2'F-ANA at 2 3 4 8 10 11 14	169
2'F-ANA at 2 7 9 10 11 12 14 15	87.3
2'F-ANA at 4 5 7 8 9 11 13 15	50.1
